Experimental data pooled from the literature.
Lines come from different studies, so protocols differ. Several values in a cell are separate wells, animals, samples, runs or records. ± gives the spread as reported.
ZBTB11/CRBN: ZBTB11/CRBN (Homo sapiens, UniProt O95625+Q96SW2)
UniProt O95625, sequence (whole entry, looked up): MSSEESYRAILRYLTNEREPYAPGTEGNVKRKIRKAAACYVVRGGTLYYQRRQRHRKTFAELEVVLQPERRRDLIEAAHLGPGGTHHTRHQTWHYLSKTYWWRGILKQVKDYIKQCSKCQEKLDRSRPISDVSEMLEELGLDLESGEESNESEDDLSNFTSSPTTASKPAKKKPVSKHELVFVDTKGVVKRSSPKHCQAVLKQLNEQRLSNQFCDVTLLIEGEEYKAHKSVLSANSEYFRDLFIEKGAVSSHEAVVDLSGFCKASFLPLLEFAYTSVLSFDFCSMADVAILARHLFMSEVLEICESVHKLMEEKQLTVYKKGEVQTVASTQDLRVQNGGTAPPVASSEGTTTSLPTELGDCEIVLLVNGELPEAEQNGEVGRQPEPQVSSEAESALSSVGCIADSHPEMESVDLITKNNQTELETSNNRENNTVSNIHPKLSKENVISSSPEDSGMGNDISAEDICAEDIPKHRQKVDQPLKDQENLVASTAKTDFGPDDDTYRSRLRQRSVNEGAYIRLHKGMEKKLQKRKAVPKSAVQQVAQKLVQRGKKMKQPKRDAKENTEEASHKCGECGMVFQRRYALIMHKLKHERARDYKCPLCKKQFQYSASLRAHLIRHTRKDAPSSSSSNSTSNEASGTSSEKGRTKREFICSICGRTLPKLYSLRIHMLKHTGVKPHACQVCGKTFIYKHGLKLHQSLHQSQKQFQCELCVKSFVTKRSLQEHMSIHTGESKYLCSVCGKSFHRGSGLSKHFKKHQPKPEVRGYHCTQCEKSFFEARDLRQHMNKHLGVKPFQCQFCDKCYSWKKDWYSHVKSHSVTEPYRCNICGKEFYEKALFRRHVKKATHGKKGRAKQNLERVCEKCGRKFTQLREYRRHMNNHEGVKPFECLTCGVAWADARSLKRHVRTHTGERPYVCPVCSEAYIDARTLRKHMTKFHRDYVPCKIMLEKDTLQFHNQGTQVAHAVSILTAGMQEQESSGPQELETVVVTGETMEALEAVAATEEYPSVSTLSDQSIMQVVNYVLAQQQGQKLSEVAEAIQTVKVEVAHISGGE
TOP2A: DNA topoisomerase 2-alpha (TOP2A, Homo sapiens, UniProt P11388)
UniProt P11388, sequence (whole entry, looked up): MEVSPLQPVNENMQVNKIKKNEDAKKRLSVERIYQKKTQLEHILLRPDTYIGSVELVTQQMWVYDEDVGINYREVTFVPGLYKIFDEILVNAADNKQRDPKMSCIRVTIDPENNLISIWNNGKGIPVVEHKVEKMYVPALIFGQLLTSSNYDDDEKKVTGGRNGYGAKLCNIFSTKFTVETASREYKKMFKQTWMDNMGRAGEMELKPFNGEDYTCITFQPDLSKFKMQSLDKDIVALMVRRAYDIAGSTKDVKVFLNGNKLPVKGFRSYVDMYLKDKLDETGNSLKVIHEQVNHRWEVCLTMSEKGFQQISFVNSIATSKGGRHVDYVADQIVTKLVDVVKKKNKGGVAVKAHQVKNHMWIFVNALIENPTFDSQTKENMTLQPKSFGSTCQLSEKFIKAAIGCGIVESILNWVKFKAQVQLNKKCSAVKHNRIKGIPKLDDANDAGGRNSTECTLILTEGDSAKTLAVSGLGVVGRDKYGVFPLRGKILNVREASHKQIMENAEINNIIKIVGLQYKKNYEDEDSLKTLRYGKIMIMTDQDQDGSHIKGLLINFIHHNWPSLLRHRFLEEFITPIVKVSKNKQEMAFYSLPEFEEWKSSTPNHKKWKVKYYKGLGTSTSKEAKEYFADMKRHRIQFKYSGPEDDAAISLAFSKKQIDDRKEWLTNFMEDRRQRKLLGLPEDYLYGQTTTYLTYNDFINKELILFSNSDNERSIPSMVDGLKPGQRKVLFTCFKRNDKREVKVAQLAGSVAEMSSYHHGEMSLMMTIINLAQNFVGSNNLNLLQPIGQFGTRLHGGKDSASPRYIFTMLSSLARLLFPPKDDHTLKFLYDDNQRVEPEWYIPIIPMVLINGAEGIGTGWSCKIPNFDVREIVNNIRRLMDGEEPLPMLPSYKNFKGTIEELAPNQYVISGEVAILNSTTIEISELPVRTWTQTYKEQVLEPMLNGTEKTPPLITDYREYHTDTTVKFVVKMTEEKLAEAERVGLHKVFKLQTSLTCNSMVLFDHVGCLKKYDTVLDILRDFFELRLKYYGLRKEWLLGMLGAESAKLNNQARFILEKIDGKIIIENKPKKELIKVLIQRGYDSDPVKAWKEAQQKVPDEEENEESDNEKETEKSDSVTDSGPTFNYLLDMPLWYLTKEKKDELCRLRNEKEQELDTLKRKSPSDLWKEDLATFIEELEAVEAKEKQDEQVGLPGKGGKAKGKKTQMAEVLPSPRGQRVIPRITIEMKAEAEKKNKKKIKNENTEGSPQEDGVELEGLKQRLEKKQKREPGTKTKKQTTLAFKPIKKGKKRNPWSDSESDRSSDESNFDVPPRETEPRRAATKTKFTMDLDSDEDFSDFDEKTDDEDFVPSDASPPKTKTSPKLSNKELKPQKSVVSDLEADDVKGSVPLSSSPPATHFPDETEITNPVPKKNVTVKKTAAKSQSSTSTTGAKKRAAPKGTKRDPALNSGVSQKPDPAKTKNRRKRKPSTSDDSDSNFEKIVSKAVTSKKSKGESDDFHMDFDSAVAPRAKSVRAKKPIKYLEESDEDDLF
T1: DNA hairpin, hairpin; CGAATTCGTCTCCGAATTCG
UniProt Q16774, sequence (whole entry, looked up): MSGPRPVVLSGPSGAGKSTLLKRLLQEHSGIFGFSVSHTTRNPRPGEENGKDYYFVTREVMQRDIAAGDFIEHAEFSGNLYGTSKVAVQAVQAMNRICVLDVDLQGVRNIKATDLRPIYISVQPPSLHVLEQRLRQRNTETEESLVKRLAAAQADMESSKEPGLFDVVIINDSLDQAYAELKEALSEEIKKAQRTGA
UniProt Q64663, sequence (whole entry, unmodified, looked up): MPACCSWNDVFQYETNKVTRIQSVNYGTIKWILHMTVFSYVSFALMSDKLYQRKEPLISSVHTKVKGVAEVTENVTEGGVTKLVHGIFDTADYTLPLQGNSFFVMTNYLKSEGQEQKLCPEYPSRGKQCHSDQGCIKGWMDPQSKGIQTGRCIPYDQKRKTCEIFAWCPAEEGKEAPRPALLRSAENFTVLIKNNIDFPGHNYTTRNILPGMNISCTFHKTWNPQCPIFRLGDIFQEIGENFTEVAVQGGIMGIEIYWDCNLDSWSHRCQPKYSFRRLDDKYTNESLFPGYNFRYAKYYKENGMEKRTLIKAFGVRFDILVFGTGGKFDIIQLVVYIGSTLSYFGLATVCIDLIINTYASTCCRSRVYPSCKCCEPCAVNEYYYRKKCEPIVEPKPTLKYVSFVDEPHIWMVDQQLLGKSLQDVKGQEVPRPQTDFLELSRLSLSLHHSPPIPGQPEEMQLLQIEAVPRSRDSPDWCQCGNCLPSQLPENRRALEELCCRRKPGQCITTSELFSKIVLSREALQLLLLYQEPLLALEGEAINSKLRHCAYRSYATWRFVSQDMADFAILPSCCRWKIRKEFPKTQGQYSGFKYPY
UniProt P51575, sequence (whole entry, unmodified, looked up): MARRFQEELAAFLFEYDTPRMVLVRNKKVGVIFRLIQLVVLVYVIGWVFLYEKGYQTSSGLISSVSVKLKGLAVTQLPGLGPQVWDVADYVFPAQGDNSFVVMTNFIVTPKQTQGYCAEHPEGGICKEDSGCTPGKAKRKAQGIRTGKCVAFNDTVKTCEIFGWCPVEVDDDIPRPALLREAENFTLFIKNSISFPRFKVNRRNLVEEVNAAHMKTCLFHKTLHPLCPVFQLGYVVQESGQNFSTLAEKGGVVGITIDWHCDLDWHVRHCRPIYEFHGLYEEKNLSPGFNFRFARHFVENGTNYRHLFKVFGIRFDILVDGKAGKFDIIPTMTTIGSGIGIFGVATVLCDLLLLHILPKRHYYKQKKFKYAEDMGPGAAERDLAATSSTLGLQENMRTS
UniProt P20393, sequence (whole entry, looked up): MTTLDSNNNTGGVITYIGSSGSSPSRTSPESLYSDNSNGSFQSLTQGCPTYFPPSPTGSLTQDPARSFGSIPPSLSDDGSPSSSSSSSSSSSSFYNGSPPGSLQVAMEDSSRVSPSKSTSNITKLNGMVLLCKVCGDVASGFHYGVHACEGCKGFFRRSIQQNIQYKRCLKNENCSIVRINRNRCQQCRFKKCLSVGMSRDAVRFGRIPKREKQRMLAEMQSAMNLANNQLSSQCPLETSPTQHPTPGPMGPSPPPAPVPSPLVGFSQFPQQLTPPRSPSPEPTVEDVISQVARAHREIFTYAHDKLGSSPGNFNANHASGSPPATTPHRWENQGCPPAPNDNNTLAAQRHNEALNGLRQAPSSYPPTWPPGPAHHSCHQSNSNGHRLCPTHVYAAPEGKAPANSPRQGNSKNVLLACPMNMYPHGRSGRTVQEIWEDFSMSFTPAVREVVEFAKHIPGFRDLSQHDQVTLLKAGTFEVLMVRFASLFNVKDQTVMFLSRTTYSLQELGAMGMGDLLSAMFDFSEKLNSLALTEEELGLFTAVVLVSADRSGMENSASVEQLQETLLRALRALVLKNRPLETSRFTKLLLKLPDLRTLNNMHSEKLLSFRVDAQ
UniProt Q9UH17, sequence (whole entry, looked up): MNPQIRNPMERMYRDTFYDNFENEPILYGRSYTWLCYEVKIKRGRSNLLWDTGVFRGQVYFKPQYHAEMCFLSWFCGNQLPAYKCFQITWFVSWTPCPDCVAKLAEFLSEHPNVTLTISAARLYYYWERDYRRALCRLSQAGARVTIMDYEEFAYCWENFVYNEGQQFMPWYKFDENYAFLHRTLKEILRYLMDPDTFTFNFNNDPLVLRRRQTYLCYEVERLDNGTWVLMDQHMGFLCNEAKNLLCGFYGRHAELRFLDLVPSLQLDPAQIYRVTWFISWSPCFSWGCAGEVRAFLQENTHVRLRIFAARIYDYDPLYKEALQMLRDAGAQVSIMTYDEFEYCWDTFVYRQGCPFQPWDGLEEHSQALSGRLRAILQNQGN
UniProt P30043, sequence (whole entry, looked up): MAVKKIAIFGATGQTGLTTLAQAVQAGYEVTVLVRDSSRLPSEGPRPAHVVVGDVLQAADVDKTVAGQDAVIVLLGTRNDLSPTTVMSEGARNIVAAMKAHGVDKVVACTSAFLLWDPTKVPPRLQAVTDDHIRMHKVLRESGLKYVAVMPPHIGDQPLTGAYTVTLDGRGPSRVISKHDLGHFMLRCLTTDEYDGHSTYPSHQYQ

[2H]c1cc(C)c(NC(=O)c2cnc(Nc3cc(N4CCCCC4)nc(C)n3)s2)c(Cl)c1 — inhibition (KIT (Homo sapiens, UniProt P10721, V654A); 0.01 µM): < 30%
O=C(O)CNc1ccc2nncn2n1 — Kd (Ubiquitin carboxyl-terminal hydrolase 49, ZnF-UBD domain (USP49, Homo sapiens, UniProt Q70CQ1)): > 1000 µM
NCCCCC(=O)O — normalised MST signal (SLC6A6 (Homo sapiens, UniProt P31641, G62A); binding, microscale thermophoresis; 1 mM, room temperature, with: 50 nM labelled protein; higher = more binding): 0.0551
O=c1c2ccccc2c(Cc2ccc(Cl)cc2)nn1C1CCCNCC1 (stereo not shown) — outward current density (CatSper channel complex (Homo sapiens, UniProt Q7RTX7+Q86XQ3+Q8NEC5+Q96P56); ion current, whole-cell patch clamp; human sperm; 10 µM, at +80 mV): 0.1 ± 1.4 pA/pF
CC(=O)N[C@H](C(=O)N1C[C@H](O)C[C@H]1C(=O)NCc1ccc(-c2scnc2C)cc1)C(C)(C)SCCCCCCNC(=O)C[C@@H]1N=C(c2ccc(Cl)cc2)c2c(sc(C)c2C)-n2c(C)nnc21 — −TΔS (Bromodomain-containing protein 3, BD2 (BRD3, Homo sapiens, UniProt Q15059); binding, ITC; 25 °C, compound in cell, protein in syringe): 2.61 ± 0.09 kcal/mol
Oc1ccc(/C=C/c2cc(O)cc(O)c2)cc1 — binding stoichiometry (O-methyltransferase (Sorghum bicolor, UniProt A0A1B6PFV1); ITC; concentration not given, with: MTA+): 0.73 ± 0.001
CCCCCCCCC(=O)c1cc(O)c(O)c(O)c1 — activation (NR1D1 (Homo sapiens, UniProt P20393); reporter gene, Gal4 hybrid reporter; 10 µM; baseline: vehicle): 2.78 fold
COc1cc(C(=O)NS(=O)(=O)c2ccccc2C)ccc1Cc1cn(C)c2ccc(NC(=O)OC3CCCC3)cc12 — Hill coefficient (LRRC8A/LRRC8C (Homo sapiens, UniProt Q8IWT6+Q8TDW0, Y124F/Y126F); whole-cell patch clamp; HCT116 LRRC8-/- transfected; at -100 mV): 1.78
CC[C@@H]1[C@H](F)C(=O)N[C@@H]1COc1nccc2cc(C(N)=O)c(OC)cc12 — inhibition (IRAK3 (Homo sapiens, UniProt Q9Y616); ATP-site probe binding, ActivX profiling; THP-1 cell lysate; 0.04 mM, Lys1 site): 31.1%
CN(C)C[C@@H]1CCn2cc(c3ccccc32)C2=C(C(=O)NC2=O)c2cn(c3ccccc23)CCO1 — Hill slope (GSK3A (Homo sapiens, UniProt P49840); kinase activity, inhibitor, Z'-LYTE): 1.14
COc1cc(-c2cncc3c2CN(C)Cc2cc(N4CCNCC4)ccc2-3)cc(OC)c1OC — remaining activity (Phosphatidylinositol 4,5-bisphosphate 3-kinase catalytic subunit alpha isoform, with p65 alpha (Pik3ca, Mus musculus, UniProt P42337); kinase activity; 1 µM, p110a/p65a)(m mouse, with: ATP 10 µM; baseline: DMSO): 89%
O=C1CCC(N2C(=O)C=C(Nc3cccc(C(NCCc4ccc(C(F)(F)F)c(Cl)c4)c4ccccc4)c3)C2=O)C(=O)N1 (stereo not shown) — Dmax (ZBTB11/CRBN; protein degradation, degrader, HiBiT luminescence; MOLT-4): 38%
CC1=C(/C=C/C(C)=C/C=C/C(C)=C/C=O)C(C)(C)CCC1 — relative kon (Rhodopsin (RHO, Bos taurus, UniProt P02699, F273A); retinal entry, Trp FRET; lipid bicelles; 28 °C, F273A mutant; baseline: wild-type rhodopsin): 0.336 ± 0.057
Nc1nc2c(ncn2[C@@H]2O[C@H](COP(=O)(O)O)[C@@H](O)[C@H]2O)c(=O)[nH]1 — reaction velocity (GUK1 (Homo sapiens, UniProt Q16774); enzyme activity, NADH-coupled; 250 µM, with: KCl 50 mM): 0.131 µM/s and 0.123 µM/s and 0.117 µM/s
O=C(O)c1cccc(-c2noc(-c3ccccc3F)n2)c1 — koff (BLVRB (Homo sapiens, UniProt P30043); binding): 0.012 s⁻¹
Nc1ncnc2c1ncn2[C@@H]1O[C@H](COP(=O)(O)CP(=O)(O)OP(=O)(O)O)[C@@H](O)[C@H]1O — calcium influx (P2X purinoceptor 1 (P2RX1, Homo sapiens, UniProt P51575, D170A); calcium influx; 316 nM; baseline: ionomycin response): 0% and 0.207% and 0.351%
O=S(=O)(O)C(O)c1ccccn1 (stereo not shown) — Vmax decrease (GLO2 (Arabidopsis thaliana, UniProt Q9LRS0); mixed inhibitor, o-dianisidine coupled; 0.05 µM, with: glycolate 0.1-5 mM): 70%
N[C@@H](Cc1ccccc1)C(=O)Nc1ccc2ccccc2c1 — kcat (rat neuron-specific aminopeptidase; substrate; MW 110 kDa): 17.5 s⁻¹
CO[C@H]1O[C@H](COS(=O)(=O)O)[C@@H](O[C@@H]2O[C@@H](C(=O)O)[C@@H](O[C@H]3O[C@H](COS(=O)(=O)O)[C@@H](O[C@@H]4O[C@H](C(=O)O)[C@@H](O[C@H]5O[C@H](COS(=O)(=O)O)[C@@H](O)[C@H](O)[C@H]5NS(=O)(=O)O)[C@H](O)[C@H]4O)[C@H](OS(=O)(=O)O)[C@H]3NS(=O)(=O)O)[C@H](O)[C@H]2OS(=O)(=O)O)[C@H](O)[C@H]1NS(=O)(=O)O — salt-independent binding energy (Beta-2-glycoprotein 1, domain V (APOH, Homo sapiens, UniProt P02749, V266L); ITC salt dependence): -3.8 kcal/mol
N#Cc1ccn2c(-c3ccncc3)c(-c3ccc(F)cc3)nc2c1 — log2 fold change (Negative regulator of the PHO system (PHO85, Candida albicans, UniProt Q9HGY5); kinase binding, competitor, MIB/MS competition, item: PHO85; Candida albicans cell lysate; 1 µM; baseline: DMSO): 0.337
C[C@H]1C(=O)/C(=C/c2ccccc2)[C@H]2C[C@@H]1N(Cc1ccccc1)C[C@@]2(C)O — binding (Tmem97 (Rattus norvegicus, UniProt Q5U3Y7); radioligand binding; 1 µM, with: [3H]DTG): no binding
CCCN(CCC)S(=O)(=O)c1ccc(C(=O)O)cc1 — Hill coefficient (Trpv2 (Rattus norvegicus, UniProt Q9WUD2); calcium influx, agonist, Fura-2 fluorescence; Pichia pastoris membrane vesicles): 2.1
COc1cc(F)ccc1-c1ncnc(Nc2cccc(C[S@](C)(=N)=O)c2)n1 — remaining activity (FLT1 (Homo sapiens, UniProt P17948); kinase activity; 10 µM, with: 10 µM ATP): 67%
Nc1ncnc2c1ncn2[C@@H]1O[C@H](COP(=O)(O)OP(=O)(O)OP(=O)(O)O)[C@@H](O)[C@H]1O — normalized current (P2X purinoceptor 7 (P2rx7, Rattus norvegicus, UniProt Q64663); ion current, agonist, two-electrode voltage clamp; Xenopus laevis oocytes; 100 µM; baseline: 100 µM compound response): 1
[H]/N=C(/N)NCC(=O)O — normalised MST signal (SLC6A6 (Homo sapiens, UniProt P31641, L306A); binding, microscale thermophoresis; 62.5 µM, room temperature, with: 50 nM labelled protein; higher = more binding): 0.0142
COc1cccc2c(-c3ccc(CN4CCOCC4)cc3)cc(C(=O)Nc3ccc(C(=O)O)cc3)nc12 — IC50 (RARG (Homo sapiens, UniProt P13631); reporter gene, antagonist; up to 3300 nM, with: ATRA 8 nM (EC80)): inactive
CCC(C)(NCCc1ccc(C(F)(F)F)c(Cl)c1)c1cccc(NC2=CC(=O)N(C3CCC(=O)NC3=O)C2=O)c1 (stereo not shown) — Dmax (ZBTB11/CRBN; protein degradation, degrader, HiBiT luminescence; MOLT-4): 71%
CCCCC[C@H](O)/C=C/[C@H]1[C@H](O)CC(=O)[C@@H]1C/C=C\CCCC(=O)O — Emax (PTGER1 (Homo sapiens, UniProt P34995, F334A); IP1 accumulation, agonist; AD293; 1 h, EP1 F334A mutant): 103 ± 8.66%
Nc1ncnc2c1ncn2[C@@H]1O[C@H](COP(=O)(O)OP(=O)(O)O)[C@@H](O)[C@H]1O — Tm (DNA mismatch repair protein MutL (mutL, Bacillus subtilis, UniProt P49850); differential scanning fluorimetry; pH 7.5, with: nucleotide 2 mM): 38.5 ± 0.3 °C
OC[C@H]1OC(O)[C@H](O)[C@@H](O)[C@@H]1O (stereo partly shown) — kcat (Hexokinase-3 (HK3, Homo sapiens, UniProt P52790, A499V); substrate inhibition; mutant A499V, complete substrate inhibition model, with: ATP 20 mM): 64 ± 1 s⁻¹
O=c1nc(SCc2cc(F)cc(C(F)(F)F)c2)nc(SCc2ccc3sccc3c2)[nH]1 — relaxed DNA (TOP2A; DNA relaxation; 7.8 µM, replicate 1): 98.1%
C=CC(=O)N1CCC(COCC(=O)N2CCN(c3nc(-c4cnc(N)nc4C(F)F)nc(N4CCOC[C@@H]4C)n3)CC2)CC1 — remaining binding (EPHB6 (Homo sapiens, UniProt O15197); KINOMEscan; 1 µM): 59%
Cc1nc(CSc2nc(SCc3ccc(C(C)C)cc3)nc(=O)[nH]2)cs1 — relaxed DNA (TOP2A; DNA relaxation; 500 µM, replicate 1): 0.5%
O=C(NC1CCC1)c1ccc2nc(-c3cccc(NS(=O)(=O)NCCN4CCCCC4)c3)cn2c1 — remaining activity (BMPR2 (Homo sapiens, UniProt Q13873); enzyme activity; 10 µM): 100%
N#CSCCCCOc1ccc2c(-c3ccccc3)cc(=O)oc2c1 — selectivity ratio (CA12 (Homo sapiens, UniProt O43570); stopped-flow CO2 hydration; baseline: Ki CA I over Ki CA XII): > 427
O=C(O)c1ccc(Nc2ncc3c(n2)-c2ccc(Cl)cc2C(c2c(F)cccc2F)=NC3)cc1 — remaining activity (human DRAK1(h); kinase activity; 1 µM): 60%
N=C(N)c1ccc(-c2ccc(-c3cc4ccc(C(=N)N)cc4[nH]3)s2)cc1 — Kd (T1, DNA hairpin, hairpin; SPR; NaCl 100 mM): 0.0065 µM
O=c1nc(SCc2cc(F)cc(C(F)(F)F)c2)nc(SCc2ccc3nc(Cl)ccc3c2)[nH]1 — relaxed DNA (TOP2A; DNA relaxation; 15.6 µM, replicate 1): 99.6%
CCC1(O)CCCN(C(=O)c2ccc(-c3ccc(F)c(NC(=O)CCl)c3)cc2)C1 (stereo not shown) — unmodified protein (DNA dC->dU-editing enzyme APOBEC-3B, C-terminal domain (Homo sapiens, UniProt Q9UH17); covalent modifier, intact protein mass spectrometry; 125 µM, 3 h, 5-fold molar excess): 28% and 19%
O=[N+]([O-])c1cc(C(F)(F)F)ccc1NCc1ccco1 — ΔH (Endothelial PAS domain-containing protein 1, PAS-B domain (EPAS1, Homo sapiens, UniProt Q99814, N288Q); binding, ITC, reverse mode): -8.75 ± 0.18 kcal/mol
CCOc1ccc(NC(=O)OC(Cn2nc(C(C)C)cc2C(C)C)C(C)C)cc1 (stereo not shown) — current (Neuronal acetylcholine receptor; alpha4/beta2, (α4)2(β2)3 stoichiometry (Homo sapiens, UniProt P17787+P43681); ACh-evoked current, two-electrode voltage clamp; 1 µM, high-sensitivity stoichiometry, with: ACh 10 µM; baseline: ACh alone): 479 ± 25%
Cc1nn(CCc2ccccc2)c2ncc(C(=O)NCc3cccnc3)c(Cl)c12 — protein adduct formation (PREP (Homo sapiens, UniProt P48147); intact protein MS; 50 µM, 4 h, 37 °C): 100%
COc1cc(O)c2c(c1)oc(=O)c1c3cc(O)c(O)cc3oc21 — β-Turn content (MAL12 (Saccharomyces cerevisiae S288c, UniProt P53341); circular dichroism; molar ratio 1:2): 20.3%
C=CC(=O)N1CCC(C(=O)NCC(=O)N2CCN(c3nc(-c4cnc(N)nc4C(F)F)nc(N4CCOCC4)n3)CC2)CC1 — remaining binding (PAK3 (Homo sapiens, UniProt O75914); KINOMEscan; 1 µM): 96%
CC(C)OCCn1c(=S)[nH]c(=O)c2[nH]ccc21 — H2O2 concentration (Myeloperoxidase (MPO, Homo sapiens, UniProt P05164); H2O2 consumption, inhibitor, H2O2 electrode; 0.68 µM, 0.2 s): 0.244 µM
CC(=O)Nc1ccc(O)cc1 — chemical shift change (BRD4 (Homo sapiens, UniProt O60885); 19F NMR, item: tyrosine 119; 95 µM; baseline: free protein): 0.043 ppm

Some of these lines once more:
C[C@H]1C(=O)/C(=C/c2ccccc2)[C@H]2C[C@@H]1N(Cc1ccccc1)C[C@@]2(C)O — binding (Tmem97 (Rattus norvegicus, UniProt Q5U3Y7); radioligand binding; 1 µM, with: [3H]DTG): no binding
C=CC(=O)N1CCC(C(=O)NCC(=O)N2CCN(c3nc(-c4cnc(N)nc4C(F)F)nc(N4CCOCC4)n3)CC2)CC1 — remaining binding (PAK3 (Homo sapiens, UniProt O75914); KINOMEscan; 1 µM): 96%
CCCCCCCCC(=O)c1cc(O)c(O)c(O)c1 — activation (NR1D1 (Homo sapiens, UniProt P20393); reporter gene, Gal4 hybrid reporter; 10 µM; baseline: vehicle): 2.78 fold
COc1cc(F)ccc1-c1ncnc(Nc2cccc(C[S@](C)(=N)=O)c2)n1 — remaining activity (FLT1 (Homo sapiens, UniProt P17948); kinase activity; 10 µM, with: 10 µM ATP): 67%
[H]/N=C(/N)NCC(=O)O — normalised MST signal (SLC6A6 (Homo sapiens, UniProt P31641, L306A); binding, microscale thermophoresis; 62.5 µM, room temperature, with: 50 nM labelled protein; higher = more binding): 0.0142
N#Cc1ccn2c(-c3ccncc3)c(-c3ccc(F)cc3)nc2c1 — log2 fold change (Negative regulator of the PHO system (PHO85, Candida albicans, UniProt Q9HGY5); kinase binding, competitor, MIB/MS competition, item: PHO85; Candida albicans cell lysate; 1 µM; baseline: DMSO): 0.337
COc1cccc2c(-c3ccc(CN4CCOCC4)cc3)cc(C(=O)Nc3ccc(C(=O)O)cc3)nc12 — IC50 (RARG (Homo sapiens, UniProt P13631); reporter gene, antagonist; up to 3300 nM, with: ATRA 8 nM (EC80)): inactive
